Measured values collected from several papers.
Each line is one published result; not all experiments were run side by side. “And” joins repeats or separate records; there may be more than shown. Numbers after ± are the reported error.

| SMILES | target | test | test system | setting | how to read | endpoint | value |
| --- | --- | --- | --- | --- | --- | --- | --- |
| O=C(/C=C/c1ccc(O)c(O)c1)OCCCC[P+](c1ccccc1)(c1ccccc1)c1ccccc1 | superoxide dismutase, rat | – | rat mitochondria | 10 µM, 30 min | – | inhibition | ≤ 10% |
| C[N+](C)(CF)CCO | TMA lyase | TMA production, whole-cell | Proteus mirabilis, wild type | – | – | EC50 | 2 nM |
| CO[C@@H]1[C@H](O)[C@@H](COP(=O)(O)OP(=O)([S-])OP(=O)(S)OC[C@H]2O[C@@H](n3cnc4c(=O)[nH]c(N)nc43)[C@H](O)[C@@H]2O)O[C@H]1n1c[n+](C)c2c(O)nc(N)nc21 (mixture of isomers) | Schizosaccharomyces pombe Dcp1/Dcp2 | substrate | – | 5 to 15 min, RNA capped with compound | – | decapped RNA | 10 to 30% |
| CN(C)CCCNC(=O)c1cc(NC(=O)c2cc(NC(=O)c3cc(NC(=O)c4nc(NC(=O)[C@H](N)CCNC(=O)c5cc(NC(=O)c6cc(NC(=O)c7nc(NC(=O)c8nccn8C)cn7C)co6)co5)cn4C)cn3C)cn2C)cn1C | 12-mer DNA duplex | DNA binding, UV thermal denaturation | – | 2.4 µM, pH 7.0, match base pair A·T, with: DNA duplex 2 µM | – | melting temperature | 73.2 ± 1.3 °C |
| O=c1c(O)cccn1CCCN1CCN(CCCn2cccc(O)c2=O)CC1 | Fe(III) | mono-HOPO complex formation | – | 25 °C, ionic strength 0.10 M | – | log β | 13.6 |
| CC(=O)O[C@H]1C(=O)[C@]2(C)[C@@H](OC(=O)CCCNC(=O)c3cc4cc(F)c(O)c(F)c4oc3=O)C[C@H]3OC[C@@]3(OC(C)=O)[C@H]2[C@H](OC(=O)c2ccccc2)[C@]2(O)C[C@H](OC(=O)[C@H](O)[C@@H](NC(=O)c3ccccc3)c3ccccc3)C(C)=C1C2(C)C | microtubules | binding, saturation binding flow cytometry | HeLa (living) | 1% FBS | – | Kd | 2000 nM |
| O=C(/C=C/c1ccc(O)cc1)OCCCC[P+](c1ccccc1)(c1ccccc1)c1ccccc1 | superoxide dismutase, rat | – | rat mitochondria | 10 µM, 30 min | – | inhibition | ≤ 10% |
| COCCNc1nc(-c2nccn2C)nc2sc(-c3cccc(OC)c3Cl)c(-c3ccccc3)c12 | Ras | Ras-GTP complex formation, inhibitor, GTP pull-down | NCI-H1975 | 6 h, with: EGF 15 min | – | IC50 | 1000 to 3000 nM |
| [64Cu+2].c1ccc(CNCc2ccc(CN3CCCN4CCNCCCN(CC4)CC3)cc2)nc1 | CXCR4 (human) | – | NOD/SCID mice, U87 xenografts, liver | dose not given, 90 min post-injection, with: 25 mg/kg AMD3465 | baseline: non-blocked | uptake decrease on blocking | ~50% and 55% |
| CCCn1c(=O)c2[nH]c(-c3ccc(N(C)C(=O)c4ccc(C(F)(F)F)nc4)nc3)nc2n(CCC)c1=O | mouse adenosine A2B receptor | radioligand displacement | HEK293 membranes | – | baseline: A2B over other adenosine receptors | selectivity ratio | > 400 fold |
| CC(=O)N[C@@H](CC(N)=O)C(=O)NCC(=O)N[C@@H](C)C(=O)N[C@@H](C)C(N)=O | Asn-Gly peptide isomerisation to succinimide | 1H NMR time course | – | pH 7.4, 28 °C | – | rate constant k1 | 0.0047 h⁻¹ |
| O=C1c2c(O)cc(O)cc2-c2c(-c3ccc(O)cc3)oc3cc(O)cc1c23 | estrogen receptor alpha Y537S human | degrader, ELISA | MCF7 ESR1 Y537S heterozygous | 10 µM, 24 h | baseline: vehicle | reduction in protein level | 71.5% |
| COc1cc(CCC(C)=O)ccc1O | mAb 6-AT6 | antibody binding, indirect competitive ELISA | – | with: coating antigen 5-OVA | – | IC50 | 2.19 µg/mL |
| CC(C)C[C@H]1NC(=O)[C@@H](CC(C)C)NC(=O)[C@@](C)(NC(=O)[C@@H](CCC(=O)O)NC(=O)[C@@H](Cc2ccc(C(F)(F)F)cc2)NC(=O)[C@@H](CC(N)=O)NC(=O)[C@@]2(C)CCCC=CCCC[C@@](C)(N)C(=O)N[C@H](C)C(=O)N[C@H](Cc3c[nH]c4cc(F)ccc34)C(=O)N[C@H](Cc3ccc(O)cc3)C(=O)N2)CCCC=CCCCCCC[C@](C)(C(N)=O)NC1=O | p53 | reporter gene, activator | HCT-116 p53 reporter | 16 h, 2% FBS | – | EC50 | 34600 nM |
| CCCCN1C(=O)c2cccc3c(NCCCCCCN4CCOCC4)ccc(c23)C1=O | lysosomes | confocal lambda scanning | BHK-21 | 0.2 µM, lysosomal micro-polarity | – | emission maximum | 524 nm |
| CN(C)CCCNC(=O)c1cc(NC(=O)c2cc(NC(=O)c3cc(NC(=O)c4nc(NC(=O)[C@H](N)CCNC(=O)c5cc(NC(=O)c6cc(NC(=O)c7nc(NC(=O)c8nccn8C)cn7C)co6)cn5C)cn4C)cn3C)cn2C)cn1C | 12-mer DNA duplex | DNA binding, UV thermal denaturation | – | 2.4 µM, pH 7.0, mismatch base pair C·G, with: DNA duplex 2 µM | – | melting temperature | 72.9 ± 0.3 °C |

| SMILES | target | test | test system | setting | how to read | endpoint | value |
| --- | --- | --- | --- | --- | --- | --- | --- |
| COc1ccc2nnn(C(=O)N3COCC3(C)C)c2c1 | carboxylesterases (rat) | inhibitor | rat liver microsomes | 10 µM | baseline: control | remaining activity | 79 ± 13% |
| CCCCC/C=C/C(=O)CCc1ccc(O)c(OC)c1 | mAb 6-AT6 | antibody binding, indirect competitive ELISA | – | with: coating antigen 4-OVA | – | IC50 | > 4 µg/mL |
| CC(CCC(=O)NCc1ccc(C(=O)NO)cc1)C1CCC2C3C(O)CC4CC(O)CCC4(C)C3CCC12C (centres unmarked) | HDAC6 | immunoblotting | cystic human cholangiocytes | 2 µM, 24 h | – | acetylated α-tubulin level | increased |
| CC(=O)N[C@@H](CC(N)=O)C(=O)NCC(=O)N[C@@H](CCCNC(=N)N)C(=O)N[C@@H](C)C(N)=O | Asn-Gly peptide isomerisation to succinimide | 1H NMR time course | – | pH 7.4, 55 °C | – | rate constant k1 | 0.235 h⁻¹ |
| C[N+](C)(CF)CC(=O)O | TMA lyase | TMA production, whole-cell | Proteus mirabilis, wild type | – | – | EC50 | 16000 nM |
| CN(C)CCCNC(=O)c1cc(NC(=O)c2cc(NC(=O)c3cc(NC(=O)c4nc(NC(=O)[C@H](N)CCNC(=O)c5cc(NC(=O)c6cc(NC(=O)c7nc(NC(=O)c8nccn8C)cn7C)cn6C)cn5C)cn4C)cn3C)cn2C)cn1C | 12-mer DNA duplex | DNA binding, UV thermal denaturation | – | 2.4 µM, pH 7.0, match base pair A·T, with: DNA duplex 2 µM | – | melting temperature | 76.2 ± 1.9 °C |
| O=C(O)c1ccc(/C=C2\SC(=S)N(Cc3cccc(C(F)(F)F)c3)C2=O)cc1 | NLRP3 inflammasome | inhibitor, refers to: caspase-1 activation and IL-1β | PBMC, LPS-primed | concentration not given, dose-dependent, with: nigericin | – | IL-1β production | decreased |
| Cc1ccc(NC(=O)c2c(C)oc3ccc(O)c(CN4CCCCCC4)c23)cc1 | HIV TAR RNA | binding, small molecule microarray | – | – | direction not given | composite Z-score | 0.45 |
| CN(C)CCCNC(=O)c1cc(NC(=O)c2cc(NC(=O)c3cc(NC(=O)c4nc(NC(=O)[C@H](N)CCNC(=O)c5cc(NC(=O)c6cc(NC(=O)c7nc(NC(=O)c8nccn8C)cn7C)cn6C)co5)cn4C)cn3C)cn2C)cn1C | 12-mer DNA duplex | DNA binding, UV thermal denaturation | – | 2.4 µM, pH 7.0, match base pair A·T, with: DNA duplex 2 µM | – | melting temperature | 73.8 ± 0.3 °C |
| CN(C)CCSSCCNC(=O)c1cccc(F)c1 | human 14-3-3γ/ERRγ DBD phosphopeptide | stabilizer, fluorescence anisotropy | – | 100 µM, pH 8.0, unit not given | baseline: DMSO | PPI stabilization | 1 |
| Nc1nc2c(ncn2[C@@H]2O[C@@H]3COP(=O)(O)O[C@H]4[C@@H](F)[C@H](n5cnc6c(N)ncnc65)O[C@@H]4CSP(=O)(O)O[C@H]2[C@@H]3O)c(=O)[nH]1 | STING mouse | IRF reporter induction, agonist, luciferase | RAW Dual wild type | 24 h | – | EC50 | 886 ± 1 nM |
| Cc1ccc(C(=O)OCCCn2ccc(=O)c(OCc3ccccc3)c2C)cc1 | β-hematin formation | – | – | 200 µg/mL, 24 h, 60 °C | – | inhibition | 4% |
| C=C(CC)C(=O)c1ccc(OCC(=O)NCCCCNC(=O)COc2ccc(C(=O)C(=C)CC)c(Cl)c2Cl)c(Cl)c1Cl | glutathione S-transferase, human | enzyme activity | SK-OV-3 cell lysate | 0.2 µM | – | inhibition | ~35% |
| CCOC(=O)c1ccc(N2NC(=O)/C(=C/c3ccc([N+](=O)[O-])o3)C2=O)cc1 | Ub(G76V)-GFP reporter | inhibitor | human cells | concentration not given | – | protein degradation | inhibited |
| C=C(CC)C(=O)c1ccc(OCC(=O)NCCNC(=O)COc2ccc(C(=O)C(=C)CC)c(Cl)c2Cl)c(Cl)c1Cl | glutathione S-transferase, human | enzyme activity | CoC1 cell lysate | 0.2 µM | – | inhibition | ~25% |
| Cc1sc2ncn(CC(=O)N3CCCC3)c(=O)c2c1-c1ccc(Cl)cc1 | NMDA receptor rat recombinant | potentiator, voltage clamp | – | dose not given, with: saturating agonists | baseline: control | current potentiation | 1.6 to 2.8 fold |

A few entries again:
| SMILES | target | test | test system | setting | how to read | endpoint | value |
| --- | --- | --- | --- | --- | --- | --- | --- |
| Nc1nc2c(ncn2[C@@H]2O[C@@H]3COP(=O)(O)O[C@H]4[C@@H](F)[C@H](n5cnc6c(N)ncnc65)O[C@@H]4CSP(=O)(O)O[C@H]2[C@@H]3O)c(=O)[nH]1 | STING mouse | IRF reporter induction, agonist, luciferase | RAW Dual wild type | 24 h | – | EC50 | 886 ± 1 nM |
| CC(=O)O[C@H]1C(=O)[C@]2(C)[C@@H](OC(=O)CCCNC(=O)c3cc4cc(F)c(O)c(F)c4oc3=O)C[C@H]3OC[C@@]3(OC(C)=O)[C@H]2[C@H](OC(=O)c2ccccc2)[C@]2(O)C[C@H](OC(=O)[C@H](O)[C@@H](NC(=O)c3ccccc3)c3ccccc3)C(C)=C1C2(C)C | microtubules | binding, saturation binding flow cytometry | HeLa (living) | 1% FBS | – | Kd | 2000 nM |
| Cc1sc2ncn(CC(=O)N3CCCC3)c(=O)c2c1-c1ccc(Cl)cc1 | NMDA receptor rat recombinant | potentiator, voltage clamp | – | dose not given, with: saturating agonists | baseline: control | current potentiation | 1.6 to 2.8 fold |
